Values quoted from earlier work as cited in several papers.
Numbered parts are unrelated; values within a part may stem from several laboratories.

Study 1
Method: isocratic RP-HPLC, C18 column
Molecule type: peptide
Matrix: water/acetonitrile, 0.1% TFA
Temperature: 25 °C
Under “retention coefficient S”, `QTYSK` is recorded as 24.3.
Under “retention coefficient S”, `LASAADFR` is recorded as 17.5.
`LLLLDFR` — result for “retention coefficient S”: 14.7.

Single results of other studies
B1: CCL1; sequence looked up; chain KSMQVPFSRCCFSFAEQEIPLRAILCYRNTSSICSNEGLIFKLKRGKEACALDTVGWVQRHRKMLRHCPSKRK
`RQIKIWFQNRKWKWKK` gave an MIC of 250 µg/mL (Staphylococcus aureus; peptide).
`B1 (CCL1)` has an EC50 of 4.4 nM (CCR8 F123A mutant; IP accumulation, agonist).
For `GQLNKFIKKAQRKFHEKFAK`, the MIC was > 512 µg/mL (Staphylococcus aureus; peptide, ATCC 33591).
The AUC(0-last) of `pegcetacoplan` is reported as ~55900 µg·h/mL (human; 30 mg/day for 28 days, approximate).
`ILRWPWRIWRR` has an MIC of 256 µg/mL (Acinetobacter baumannii; peptide).
`RQIKIWFQNKKWKWKK` has an MIC of 250 µg/mL (Staphylococcus aureus; peptide).

A few entries again (single results of other studies):
`RQIKIWFQNKKWKWKK` has an MIC of 250 µg/mL (Staphylococcus aureus; peptide).
